Measured values gathered from unrelated publications.
Each numbered part is a random draw from the data of one study; scales do not carry over between parts.

Series 1
Target: Sal-like protein 4, full length isoform B (SALL4, Homo sapiens, UniProt Q9UJQ4-2, residues 1-616)
Technique: universal PBM
Molecule type: double-stranded DNA, one strand shown
Matrix: in vitro
Concentration: not given
Setting: 8-mer, flanks averaged, mean of replicates
Reading: higher = stronger binding
`AATTCAGT` gave an E-score of 0.059.
`ATTAGCCA` gave an E-score of 0.0487.
`ATGGTTGG` gave an E-score of -0.0326.
`CGCTCTCA` has an E-score of -0.206.
With `CCAACCCC` the E-score was -0.101.
For `AGCCTAGG`, the E-score was -0.131.
The E-score of `GCCAGTTA` is reported as 0.019.
`CGAAAAGA` has an E-score of -0.00781.
For `AGCGCAGC`, the E-score was -0.2.
With `CTGTCTTC` the E-score was -0.112.
For `ACCGCAAT`, the E-score was -0.113.
`ACTCAATC` gave an E-score of 0.0378.
For `TACGACCA`, the E-score was -0.0458.
`ACATCAGA` gave an E-score of 0.14.
The E-score of `ACCCTTGG` is reported as -0.222.
`CATGTCTA` gave an E-score of 0.152.
`AGGTTACC` gave an E-score of -0.0561.
`CACGGCGA` has an E-score of -0.232.
With `CTTCCATA` the E-score was 0.202.
With `ACACTCCT` the E-score was -0.00514.
The E-score of `CACTCTAC` is reported as 0.0291.
With `ACCGCTTG` the E-score was -0.152.
`AAACCCAT` has an E-score of 0.217.
The E-score of `CGATTATA` is reported as 0.304.
`AACGGCGG` has an E-score of -0.211.

Series 2
Target: Histone acetyltransferase KAT6A, both winged helices, GST fusion (KAT6A, Homo sapiens, UniProt Q92794, residues 1-181)
Technique: protein binding microarray
Molecule type: double-stranded DNA, one strand shown
Matrix: in vitro
Concentration: not given
Setting: 8-mer, flanks averaged, mean of 2 arrays, mostly near background
Relative to: not given
Reading: higher = stronger binding
Construct (chain): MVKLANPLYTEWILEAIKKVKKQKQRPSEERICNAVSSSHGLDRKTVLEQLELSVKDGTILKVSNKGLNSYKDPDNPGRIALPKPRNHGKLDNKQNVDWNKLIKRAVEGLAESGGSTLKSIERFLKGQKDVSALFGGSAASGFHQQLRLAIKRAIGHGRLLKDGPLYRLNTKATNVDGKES
The E-score of `CAGGTTCA` is reported as -0.137.
`AATAAACG` gave an E-score of 0.159.
`GGTTAGAC` gave an E-score of -0.0606.
`CGATCCGC` has an E-score of 0.181.
The E-score of `GTGCCAAA` is reported as -0.124.
`CCCCAGCC` gave an E-score of -0.189.
The E-score of `AGAGGATC` is reported as -0.214.
The E-score of `CTGAAGCC` is reported as 0.0323.
`GTAGCTCA` gave an E-score of -0.0568.
For `CGCCGTAG`, the E-score was 0.349.
With `CTCATCGA` the E-score was -0.127.
For `ACTTGACT`, the E-score was -0.273.
For `CAAGGTCC`, the E-score was -0.12.
`AAAGCAAG` gave an E-score of -0.0805.
With `CGAGGCCG` the E-score was 0.188.
`CCCCTGAG` gave an E-score of -0.246.
`ATATCTCG` gave an E-score of -0.088.
`ATCCGAAG` gave an E-score of -0.0981.
With `CGGGGCTC` the E-score was 0.0353.
`CAGTGCTC` has an E-score of -0.177.
`AACGGCCA` has an E-score of 0.192.
`AGAAAGTA` gave an E-score of -0.0765.
With `GCCACTGA` the E-score was -0.199.
The E-score of `CTACTTGC` is reported as -0.0609.
The E-score of `TATCGCAA` is reported as -0.0623.

Series 3
Target: RNA binding protein fox-1 homolog 2, RRM domain, GST-SBP tag (RBFOX2, Homo sapiens, UniProt O43251-10, residues 100-194)
Technique: RNA Bind-n-Seq
Molecule type: RNA
Matrix: in vitro
Concentration: 365 nM
Setting: natural RNA segment, single round, ends assumed
Relative to: no-protein control
Reading: higher = stronger binding
All sequences stand within: GGGAGUUCUACAGUCCGACGAUC … UGGAAUUCUCGGGUGCCAA
Residues (chain): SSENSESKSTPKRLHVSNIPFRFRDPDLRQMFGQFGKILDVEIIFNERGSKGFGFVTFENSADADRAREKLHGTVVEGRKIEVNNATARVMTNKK
`UUAUUUUCUUUCUCAGGGUCCUUUCUUUGGUGGGGGUCCACUCCCCGAAAGAUGUUGUCAUUGGCAAUCUGCAGUUGCAAAGGGGGUAGGGUGGUCUCAGAAGGCACGAG`: “RBNS enrichment (R)” 0.492.
For `CCCGUGUCUGGAUGAAGGGCUUUCGGAAUGUAGAUGGUCAGGAGGUGCAUGCUGCUAUGUGAAUCUUAAAACUCCCUGCUGGAGGGAGGAGGCUGCUACAUUCCUCUCGU`, “RBNS enrichment (R)” read 4.85.
Under “RBNS enrichment (R)”, `AAUCCUAUGUCAGCUCUCUUAGGAAGCCCCAGUACUUAUAUUGGGCAUGCACUUGCCCUUAAAAACAAUGAUUUGUGAGUCCAGGAACAAUUUACUAUUUUUAAAAUAUU` is recorded as 0.834.
`GCACAUCUUGGAGAGCUUGUGGACAUACUAUCUUUCAAUGAAGUAUAUUCAAAGGAUAUUUAUAUUGGUGAUAUUUAAAUUAACACAGACAUGCAAAGCAUUCUUUUGCA`: “RBNS enrichment (R)” 0.713.
`AUAAAUACUGGUGUAUCCCCUGACUUGUACCCAGAGUACAAGGUGACAGUGACACAUGUAACUUAGCAUAGGCAAAGGGUUCUACAACCAAAGAAGCCACUGUUUGGGGA` — result for “RBNS enrichment (R)”: 0.814.
Under “RBNS enrichment (R)”, `CCAUAGAGACAACCUGUGUGCUUUCCUGGAUUCCUGAUGAGUUCUGCCAUUUUCUACUUAAUUUCAAAGCCCAGUUUUAAGUAACUGGACUACACUGUUGACCUACCCAU` is recorded as 0.584.
For `AAACUAACUGUACUCUGUAUUUCUUAUUUGUACAUAUCAAUGUGAGAAAUCUCCCUUUUUUAUGUUGCAAUUACCUUGUGAUCAGGCAGCUUGAGUGCUAUGCAAAUAGU`, “RBNS enrichment (R)” read 0.61.
`GUUUGGGAUAUUAAAACACAAAGUCCUUAACAUGCCAGGCUCAAGGUCUUAUAAGAGUUCUAGAUUUUUAAGAGAAUUAGACAAAUUUGUGUGUGUUAGAAGCCCAUUCA` — result for “RBNS enrichment (R)”: 0.798.
For `GGCGCCAGCCUGAAGCUGCCAGGCCCUGAGGUUCAGACCCUGGACCCCAUAGCUGGAGGCCUGUGGUGCCAGAAGCCCAGAUUAGGGUGGCUGUCCAUCCCUGGAUAGCU`, “RBNS enrichment (R)” read 0.206.
`CUUCCCCUUCCAACUAUGUCCAGAUGUGCAGGCUCCUCCUCUCUGGACUUUCUCCAAAGGCACUGACCCUCGGCCUCUACUUUGUCCCCUCACCUCCACCCCCUCCUGUC` — result for “RBNS enrichment (R)”: 0.89.
For `CCAUGUAACGCACCUGUAACUUAUCAGCCCAUGUUCAUUACGUAACUUUGUACUGUACGUCACAGUGAUGAGUGUGACAGCUCAGCUCUUUGAUUUCAUAGUGAGUUUUC`, “RBNS enrichment (R)” read 0.398.
`CUCCGAGUUUGUGUGUCUAGAACUUGGAUGUUUCCAUAAGGAAAACAGAACUGUGGUAUUGUUUCGAGAAGAAUUAAGUAAAGUUUAAUCUUUCUGAACUCCUGACUUAC` — result for “RBNS enrichment (R)”: 0.731.

Series 4
Target: Interferon regulatory factor 7, full length, phosphomimetic (IRF7, Homo sapiens, UniProt Q92985, residues 1-503, S101K/S471D/S472D/S475D/S476D/S477D/S483D/S484D/S487D)
Technique: protein-binding microarray
Molecule type: double-stranded DNA, one strand shown
Matrix: in vitro
Concentration: 250 nM
Setting: 60-bp whole probe
With: salmon DNA 0.4 mg/ml
Relative to: random background probes
Reading: higher = stronger binding
All sequences stand within: GCCTAGCAC … GTCTTGATTCGCTTGACGCTGCTG
Residues (chain): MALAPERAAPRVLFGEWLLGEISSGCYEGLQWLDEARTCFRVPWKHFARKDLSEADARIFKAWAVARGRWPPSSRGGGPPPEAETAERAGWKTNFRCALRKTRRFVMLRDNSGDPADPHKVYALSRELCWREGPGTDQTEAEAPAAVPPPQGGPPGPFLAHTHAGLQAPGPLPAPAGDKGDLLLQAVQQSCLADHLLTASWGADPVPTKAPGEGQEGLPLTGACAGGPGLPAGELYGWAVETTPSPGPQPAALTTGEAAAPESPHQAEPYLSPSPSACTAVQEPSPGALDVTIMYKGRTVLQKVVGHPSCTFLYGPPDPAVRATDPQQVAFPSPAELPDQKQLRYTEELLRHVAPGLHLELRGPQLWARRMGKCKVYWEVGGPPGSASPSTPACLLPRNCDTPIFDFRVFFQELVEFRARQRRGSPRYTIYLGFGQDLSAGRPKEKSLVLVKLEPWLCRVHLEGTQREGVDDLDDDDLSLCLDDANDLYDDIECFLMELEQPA
`GACGGTTTCCGGTTTCGGGACGTGCTA` gave a log fluorescence of 7.9 z-score.
`GACGATAGCAGTCTCGAGACGTGCTAG` gave a log fluorescence of 0.138 z-score.
`TCATAGTTGTGTCTTGCACTGTGCTAG` has a log fluorescence of -0.428 z-score.
With `CTAGGTATCGGGTATCGGTTAGTGCTA` the log fluorescence was 2.04 z-score.
`GACGGTCTCCTGCTGCTGACGTGCTAG` gave a log fluorescence of -0.359 z-score.
With `GACGATATCGGGTTTCGCGACGTGCTA` the log fluorescence was 0.474 z-score.
For `TTAGGACTGGGACTCGGTTAGTGCTAG`, the log fluorescence was 0.883 z-score.
For `TCACATTTTCATTTTGTACTGTGCTAG`, the log fluorescence was 2.23 z-score.
The log fluorescence of `GACGGTTTCGGGTGTCGGGACGTGCTA` is reported as 5.57 z-score.
For `TGGGTGACTCTTACTCATTAGTGCTAG`, the log fluorescence was -0.938 z-score.
For `TTAGGTATCAGTTTCGGTTAGTGCTAG`, the log fluorescence was 8.37 z-score.
For `GACGATCTTAGTTTCGAGACGTGCTAG`, the log fluorescence was 4.82 z-score.
With `TCACTTTCCCCTTCCTAACTGTGCTAG` the log fluorescence was 2.89 z-score.
With `TCAAGATTTTTTTTCCTACTGTGCTAG` the log fluorescence was 1.07 z-score.
`TTAGAGTTCAGACTGGATTAGTGCTAG` has a log fluorescence of -0.492 z-score.
`TCATCGATTTCTCTTTCCACTGTGCTA` gave a log fluorescence of 1.28 z-score.
For `TTAGGACTGTTTATCCTTTAGTGCTAG`, the log fluorescence was 0.502 z-score.
`TTAGGTCTCCTTTTCCTATAGTGCTAG` gave a log fluorescence of 2.18 z-score.
`TTAGGTCTCCGTCTCGGTTAGTGCTAG` gave a log fluorescence of 0.343 z-score.
`CTAATTTTCAATTCCTGAAAGTGCTAG` has a log fluorescence of 1.6 z-score.
For `TTAGATTTCAGTTCCGCTTAGTGCTAG`, the log fluorescence was 1.95 z-score.
`GAGTCTTCCCTTTTAAGTTCGTGCTAG` gave a log fluorescence of 1.78 z-score.
`TTATGTATCCTTTTCCTTTAGTGCTAG` has a log fluorescence of 1.33 z-score.
`GACGGTGTCGACTATCGGGACGTGCTA` has a log fluorescence of -0.589 z-score.
With `TATGTTCACTATTTAAGACCGTGCTAG` the log fluorescence was 1.18 z-score.

A few entries again (series 2):
For `ACTTGACT`, the E-score was -0.273.
For `CAAGGTCC`, the E-score was -0.12.
`AAAGCAAG` gave an E-score of -0.0805.
With `CGAGGCCG` the E-score was 0.188.
`CCCCTGAG` gave an E-score of -0.246.
`ATATCTCG` gave an E-score of -0.088.
`ATCCGAAG` gave an E-score of -0.0981.
